Published values pooled from the literature.
A part holds a random share of what one study measured. Changes are numbered by the printed parent chain.

Series 1
Target: CCNF, cyclin fold, Cln2 fusion (human)
Technique: yeast growth competition, sequencing
Medium: yeast
Notes: strong parent motif
Baseline: not given
Reading: higher = stronger binding
Measurement: normalised enrichment score
Parent: viral docking peptide; YKVKRRLVFGADD; partner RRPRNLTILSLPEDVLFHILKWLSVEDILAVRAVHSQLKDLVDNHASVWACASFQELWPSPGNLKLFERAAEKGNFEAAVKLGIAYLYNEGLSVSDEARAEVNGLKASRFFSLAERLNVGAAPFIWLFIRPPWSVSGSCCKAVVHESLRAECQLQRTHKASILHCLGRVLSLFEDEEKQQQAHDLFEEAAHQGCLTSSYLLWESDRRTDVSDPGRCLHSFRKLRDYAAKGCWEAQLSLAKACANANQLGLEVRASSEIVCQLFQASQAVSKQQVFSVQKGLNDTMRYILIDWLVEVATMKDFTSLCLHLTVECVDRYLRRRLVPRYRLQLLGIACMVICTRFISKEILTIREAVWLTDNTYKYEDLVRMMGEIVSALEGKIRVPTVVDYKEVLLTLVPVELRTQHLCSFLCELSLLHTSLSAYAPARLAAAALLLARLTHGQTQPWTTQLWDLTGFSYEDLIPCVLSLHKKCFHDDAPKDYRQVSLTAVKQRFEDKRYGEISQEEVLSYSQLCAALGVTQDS
K2A: 8.71
F9M: 8.35
K2L: 8.73
D12I: 8.79
L7W: 0.976
A11P: 8.9
F9P: 1.29
L7N: 0.88
R5D: 0.762
R5E: 0.532
V8I: 8.8
L7K: 0.961
D12S: 8.92
L7C: 1.79
F9T: 3.47
R5P: 0.433
V3L: 8.84

Series 2
Target: Mu-type opioid receptor (OPRM1, Homo sapiens, UniProt P35372)
UniProt P35372, sequence (whole entry, looked up): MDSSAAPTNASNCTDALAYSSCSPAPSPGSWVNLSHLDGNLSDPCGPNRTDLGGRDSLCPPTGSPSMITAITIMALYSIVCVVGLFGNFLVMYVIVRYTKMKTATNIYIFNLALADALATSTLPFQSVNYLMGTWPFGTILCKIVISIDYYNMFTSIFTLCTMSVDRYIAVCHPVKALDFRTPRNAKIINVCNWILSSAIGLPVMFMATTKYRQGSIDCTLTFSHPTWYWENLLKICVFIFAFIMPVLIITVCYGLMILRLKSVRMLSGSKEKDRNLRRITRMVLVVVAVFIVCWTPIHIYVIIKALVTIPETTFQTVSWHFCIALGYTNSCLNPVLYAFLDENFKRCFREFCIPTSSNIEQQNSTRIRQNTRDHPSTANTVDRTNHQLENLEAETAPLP
Observed: ligand displacement
Concentration: 10 µM
Measurement: inhibition
CN(C)c1ncnc(-c2ccc3nc(Nc4cc(CN5CCN(C(=O)CC(F)(F)F)CC5)ccn4)[nH]c3c2)c1Cl: 14.1%
CS(=O)(=O)N1CCCC(NC(=O)[C@H](CCC2CCCCC2)NC(=O)c2ccc(CNC(=O)c3cnc4ccccn34)cc2)C1 (some centres unmarked): 45.3%
O=C(NS(=O)(=O)c1ccc(NCC2CCOCC2)c([N+](=O)[O-])c1)c1ccc(N2CCN(Cc3ccc(C(F)(F)F)cc3-c3ccc(Cl)cc3)CC2)cc1Oc1cnc2[nH]ccc2c1: 10.7%
CO[C@H]1CC[C@H](CNc2ccc(S(=O)(=O)NC(=O)c3ccc(N4CCN(CC5=C(c6ccc(Cl)cc6)CC(C)(C)CC5)CC4)cc3Oc3cnc4[nH]ccc4c3)cc2[N+](=O)[O-])CC1: 10.2%
CNC(=N)NCCC[C@H](NC(=O)[C@H](CC(C)C)NC(=O)NNC(=O)[C@H](Cc1ccccc1)NC(=O)[C@H](CO)NC(=O)[C@H](CC(N)=O)NC(=O)[C@@H](Cc1ccncc1)NC(=O)[C@H](N)Cc1ccc(O)cc1)C(=O)N[C@@H](Cc1ccccc1)C(N)=O: -4.62%
Nc1cnc(N2CCc3cc(S(=O)(=O)Nc4c(F)cc(Cl)cc4F)cc(N4CCCC4=O)c32)nc1: -1.31%
Cn1cc(Cl)c2c(Oc3c(F)cc(Nc4cc(Cl)nc(N)n4)cc3F)ccnc21: -9.98%
CC[C@H](CC(=O)O)n1c(=O)c2ncccc2n(Cc2cn(C)c3cc(C)cc(C)c23)c1=O: 2.82%
CCOc1ccc(S(=O)(=O)Nc2ccc(Cl)cc2C#Cc2cnc(C(=O)O)cc2OC)c2ncccc12: -10.6%
CC(=O)Nc1ncc(CN2CCC[C@H](Cc3cc(C)nc(C)c3)C2)s1: 12.8%
COc1cc(N[C@@H]2CCCC[C@]2(O)C(F)(F)F)ccc1F: 10.3%
COc1cccc(NC(=O)c2nc3scc(CN(C)Cc4ccccc4)c3c(=O)[nH]2)c1: 2.84%
O=C(Nc1ccc(Oc2ccc(F)cc2)cc1)N1CCc2ncccc2[C@H]1c1ccc(F)cc1: 37.1%
C[C@@H](c1cccc(C#N)c1)n1cc(Cl)cc(C(N)=O)c1=N: -6.83%
CCC(=NO)C(C)=Cc1ccc(F)c(C)c1: -1.52%

Series 3
Target: HLA class I histocompatibility antigen, A alpha chain, allele A*80:01 (Homo sapiens, UniProt P04439)
Observed: peptide-MHC binding
Molecule type: peptide
Reading: direction not given
Measurement: z-score of log IC50
CRTAFKPVL: 0.38
AFMATNKAY: 0.38
DAVEDFLAF: 0.38
DLRPYGLIK: 0.38
AYDHGNVIL: 0.38
FLAAECPFL: 0.38
DEEAINLFH: 0.38
CERYGFPAS: 0.38
APFARLLNL: 0.38
AARISSCLK: 0.38
AIDDFCLFA: 0.38
FLSFASLFL: 0.38
CLSPVVAGL: 0.38
AILAGEHKC: 0.38
GLIQYPTAW: 0.38
APDGFYPFK: 0.38
FLYDRLAST: 0.38
FVRSSPANF: 0.38
ALRRRTGTR: 0.38
AEDLADHHV: 0.38
FHSRFVQAL: 0.38
AVEDFLAFF: 0.38
AFDLSFFLK: 0.38
DLEKYNLAF: 0.38
DLAQDPMLI: 0.38

Series 4
Target: Histone acetyltransferase KAT6A, winged helix 2, GST fusion (KAT6A, Homo sapiens, UniProt Q92794, residues 85-181)
Technique: protein binding microarray
Molecule type: double-stranded DNA, one strand shown
Medium: in vitro
Concentration: not given
Notes: 8-mer, flanks averaged, mean of 2 arrays, mostly near background
Baseline: not given
Reading: higher = stronger binding
Measurement: E-score
Residues (chain): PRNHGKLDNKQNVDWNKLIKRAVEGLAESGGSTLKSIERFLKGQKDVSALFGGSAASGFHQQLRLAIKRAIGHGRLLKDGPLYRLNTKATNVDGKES
AAAGGTTG: -0.146
TGGAATAA: 0.079
AGCCGTAC: 0.00449
AGGATTGC: -0.0364
CTGCCTGC: 0.035
TAGTTAGA: -0.0183
GAAGATCA: 0.0168
GTCAACAC: 0.123

For quick reference, copied from above (series 3):
FLYDRLAST: 0.38
AILAGEHKC: 0.38
AIDDFCLFA: 0.38
